Results collected from several papers.
Compare with care: the assays were run in different laboratories. “And” joins repeats or separate records; there may be more than shown.

For `CC(C)(C)[Si](C)(C)Oc1ccc(COC(=O)NNc2ccccc2)cc1`, the remaining fraction was 0.97 and 0.95 and 0.99 (PBS; 2.5 h, 37 °C; reference: initial amount).
`CC(C)(C)[C@H](NC(=O)c1ccc(Oc2ccc(C(=O)N[C@H]3CCCC[C@@H]3O)cc2)cc1)C(=O)NCCN1CCCC1` has a remaining compound of 87.3% (mouse liver microsomes; 1 µM, 20 min, pH 7.4).
`CC[C@H](C)[C@@H](C(=O)N[C@@H](CC(C)C)C(=O)N[C@@H](CO)C(=O)N[C@@H](CO)C(=O)N[C@H](C(=O)N[C@@H](CCC(=O)O)C(=O)N[C@H](C(=O)NCC(=O)N[C@@H](CO)C(=O)N[C@@H](CC(N)=O)C(=O)N[C@H](C(=O)N1C[C@H](O)C[C@H]1C(N)=O)[C@@H](C)O)C(C)C)[C@@H](C)O)N(C)C(=O)[C@H](C)NC(=O)CN(C)C(=O)[C@H](Cc1ccccc1)NC(=O)[C@H](CO)NC(=O)[C@H](CO)NC(=O)[C@H](CCCNC(=N)N)NC(=O)[C@H](CCC(N)=O)NC(=O)[C@H](CC(C)C)NC(=O)[C@H](Cc1ccccc1)NC(=O)[C@H](CCCC(=O)O)NC(=O)[C@H](C)NC(=O)[C@H](CC(C)C)NC(=O)[C@H](CCCNC(=N)N)NC(=O)[C@H](CCC(=O)O)NC(=O)[C@@H](NC(=O)[C@H](C)NC(=O)[C@@H]1CCCCNC(=O)C[C@H](NC(=O)[C@H](CCCNC(=N)N)NC(=O)CC[C@H](NC(=O)CCCCCCCCCCCCCCCCCCC(=O)O)C(=O)O)C(=O)NCC(=O)N[C@@H]([C@@H](C)O)C(=O)N[C@@H](C)C(=O)N[C@@H]([C@@H](C)O)C(=O)N1)[C@@H](C)O` — result for “remaining main peak”: 97 area % (RP-HPLC; water; 7 days, pH 7.5, 40 °C).
For `Cc1ccc(C(C)C)cc1.O=C(N=P(c1ccccc1)(c1ccccc1)c1ccccc1)c1ccccn1.[Cl-].[Cl-].[Ru+2]`, “remaining intact compound” read 87% (DMSO-d6; 1 month).
`CCN(CC)CC#CCNc1ccnc2cc(Cl)ccc12` has a remaining parent of 39.3% (monkey hepatocytes; 10 µM, 30 min; reference: time zero).
`Cc1ccc(C(C)C)cc1.O=C(N=P(c1ccccc1)(c1ccccc1)c1ccccc1)c1[c-]cccc1.[Cl-].[Ru+2]` — result for “remaining intact compound”: 25% (DMSO-d6; 3 weeks).
`C=CC(=O)Nc1cc(Nc2nccc(-c3cn(C)c4ccccc34)n2)c(OC)cc1N(C)CCNC` has a remaining amount of 89.1% (storage stability; human plasma; 270 ng/mL, 24 h, on ice, HQC level).
`CN(Cc1cc(C2CC2)on1)C(=O)c1cccc(-c2ccc(F)cc2)c1` gave a remaining compound of 72.9% (human liver microsomes; 2 µM, 30 min, pH 7.5, without ABT).
`C#Cc1c(F)ccc2cc(O)cc(-c3ncc4c(N5CC6CCC(C5)N6C(=O)OC(C)OC(=O)c5ccc6ccccc6c5)nc(OC[C@@]56CCCN5C[C@H](F)C6)nc4c3F)c12` (stereo partly drawn) has a remaining prodrug of 106% (simulated gastric fluid; 1 µM, 30 min, 37 °C).
For `CC[C@H](C)[C@@H](C(=O)N[C@@H](CC(C)C)C(=O)N[C@@H](CO)C(=O)N[C@@H](CO)C(=O)N[C@H](C(=O)N[C@@H](CCC(=O)O)C(=O)N[C@H](C(=O)NCC(=O)N[C@@H](CO)C(=O)N[C@@H](CC(N)=O)C(=O)N[C@H](C(=O)N1CCC[C@H]1C(N)=O)[C@@H](C)O)C(C)C)[C@@H](C)O)N(C)C(=O)[C@H](C)NC(=O)CN(C)C(=O)[C@H](Cc1ccccc1)NC(=O)[C@H](CO)NC(=O)[C@H](CO)NC(=O)[C@H](CCCNC(=N)N)NC(=O)[C@H](Cc1c[nH]cn1)NC(=O)[C@H](CC(C)C)NC(=O)[C@H](Cc1ccccc1)NC(=O)[C@H](Cc1c[nH]cn1)NC(=O)[C@H](C)NC(=O)[C@H](CC(C)C)NC(=O)[C@H](CCCNC(=N)N)NC(=O)[C@H](CCC(=O)O)NC(=O)[C@@H](NC(=O)[C@H](C)NC(=O)[C@@H]1CSSC[C@H](NC(=O)[C@H](CCCNC(=N)N)NC(=O)CC[C@H](NC(=O)CCCCCCCCCCCCCCCCCCC(=O)O)C(=O)O)C(=O)NCC(=O)N[C@@H]([C@@H](C)O)C(=O)N[C@@H](C)C(=O)N[C@@H]([C@@H](C)O)C(=O)N1)[C@@H](C)O`, “remaining main peak” read 76 area % (RP-HPLC; water; 7 days, pH 7.5, 40 °C).
`N=C(N)NCCC[C@@H]1NC(=O)[C@H](CCCNC(=N)N)NC(=O)[C@@H](CCCNC(=N)N)NC(=O)[C@@H](CCCNC(=N)N)NC(=O)[C@@H](C(c2ccccc2)c2ccccc2)NC(=O)[C@H](Cc2c[nH]c3ccccc23)NC(=O)[C@@H](C(c2ccccc2)c2ccccc2)NC1=O` has a remaining peptide of 37.7% (LC-MS; human plasma; 24 h).
`CC[C@H](C)[C@@H](C(=O)N[C@@H](CC(C)C)C(=O)N[C@@H](CO)C(=O)N[C@@H](CO)C(=O)N[C@H](C(=O)N[C@@H](CCC(=O)O)C(=O)N[C@H](C(=O)NCC(=O)N[C@@H](CO)C(=O)NCC(=O)N[C@H](C(=O)N1C[C@H](O)C[C@H]1C(N)=O)[C@@H](C)O)C(C)C)[C@@H](C)O)N(C)C(=O)[C@H](C)NC(=O)CN(C)C(=O)[C@H](Cc1ccccc1)NC(=O)[C@H](CO)NC(=O)[C@H](CO)NC(=O)[C@H](CCCNC(=N)N)NC(=O)[C@H](CCC(N)=O)NC(=O)[C@H](CC(C)C)NC(=O)[C@H](Cc1ccccc1)NC(=O)[C@H](Cc1c[nH]cn1)NC(=O)[C@H](C)NC(=O)[C@H](CC(C)C)NC(=O)[C@H](CCCNC(=N)N)NC(=O)[C@H](CCC(N)=O)NC(=O)[C@@H](NC(=O)[C@H](C)NC(=O)[C@@H]1CSSC[C@H](NC(=O)[C@H](CCCNC(=N)N)NC(=O)CC[C@H](NC(=O)CCCCCCCCCCCCCCCCCCC(=O)O)C(=O)O)C(=O)N[C@@H](CC(N)=O)C(=O)N[C@@H]([C@@H](C)O)C(=O)N[C@@H](C)C(=O)N[C@@H]([C@@H](C)O)C(=O)N1)[C@@H](C)O`: “remaining main peak” 95 area % (RP-HPLC; water; 7 days, pH 6.0, 40 °C).
For `O=C(NC1CCC(F)(F)CC1)C(c1cncnc1)N(C(=O)C(F)Cl)c1ccc(-c2cncs2)cc1` (stereo not drawn), the remaining compound was 84.5% (mouse liver microsomes; concentration not given, 0.08333 h, pH 7.4).
`CC[C@H](C)[C@@H](C(=O)N[C@@H](CC(C)C)C(=O)N[C@@H](CO)C(=O)N[C@@H](CO)C(=O)N[C@H](C(=O)N[C@@H](CCC(=O)O)C(=O)N[C@H](C(=O)NCC(=O)N[C@@H](CO)C(=O)N[C@@H](CC(N)=O)C(=O)N[C@H](C(=O)N1C[C@H](O)C[C@H]1C(N)=O)[C@@H](C)O)C(C)C)[C@@H](C)O)N(C)C(=O)[C@H](C)NC(=O)CN(C)C(=O)[C@H](Cc1ccccc1)NC(=O)[C@H](CO)NC(=O)[C@H](CO)NC(=O)[C@H](CCCNC(=N)N)NC(=O)[C@H](CCC(N)=O)NC(=O)[C@H](CC(C)C)NC(=O)[C@H](Cc1ccccc1)NC(=O)[C@H](Cc1c[nH]cn1)NC(=O)[C@H](C)NC(=O)[C@H](CC(C)C)NC(=O)[C@H](CCCNC(=N)N)NC(=O)[C@H](CCC(=O)O)NC(=O)[C@@H](NC(=O)[C@H](C)NC(=O)[C@@H]1CSSC[C@H](NC(=O)[C@H](CCCNC(=N)N)NC(=O)CC[C@H](NC(=O)CCCCCCCCCCCCCCCCCCC(=O)O)C(=O)O)C(=O)N[C@@H](CCC(N)=O)C(=O)N[C@@H]([C@@H](C)O)C(=O)N[C@@H](C)C(=O)N[C@@H]([C@@H](C)O)C(=O)N1)[C@@H](C)O`: “remaining main peak” 96 area % (RP-HPLC; water; 7 days, pH 6.0, 40 °C).
`O=C(NC1CCC(F)(F)CC1)C(c1cncnc1)N(C(=O)C(F)Cl)c1ccc(OC(F)(F)F)cc1` (stereo not drawn) gave a remaining compound of 100% (mouse liver microsomes; concentration not given, 0.75 h, pH 7.4).
